Measured values of several laboratories.
Numbered parts are unrelated; each lists some results of a single study. “And” joins repeats or separate records; there may be more than shown.
Sequence of UniProt P11802 (whole entry, looked up): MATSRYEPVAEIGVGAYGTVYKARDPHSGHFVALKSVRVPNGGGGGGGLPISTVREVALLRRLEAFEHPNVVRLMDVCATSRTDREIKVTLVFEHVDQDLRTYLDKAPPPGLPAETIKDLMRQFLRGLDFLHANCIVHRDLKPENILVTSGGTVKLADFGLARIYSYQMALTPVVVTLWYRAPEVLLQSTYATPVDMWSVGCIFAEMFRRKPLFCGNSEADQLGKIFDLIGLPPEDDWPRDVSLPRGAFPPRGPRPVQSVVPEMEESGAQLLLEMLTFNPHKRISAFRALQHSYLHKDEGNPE
Sequence of UniProt O95382 (whole entry, looked up): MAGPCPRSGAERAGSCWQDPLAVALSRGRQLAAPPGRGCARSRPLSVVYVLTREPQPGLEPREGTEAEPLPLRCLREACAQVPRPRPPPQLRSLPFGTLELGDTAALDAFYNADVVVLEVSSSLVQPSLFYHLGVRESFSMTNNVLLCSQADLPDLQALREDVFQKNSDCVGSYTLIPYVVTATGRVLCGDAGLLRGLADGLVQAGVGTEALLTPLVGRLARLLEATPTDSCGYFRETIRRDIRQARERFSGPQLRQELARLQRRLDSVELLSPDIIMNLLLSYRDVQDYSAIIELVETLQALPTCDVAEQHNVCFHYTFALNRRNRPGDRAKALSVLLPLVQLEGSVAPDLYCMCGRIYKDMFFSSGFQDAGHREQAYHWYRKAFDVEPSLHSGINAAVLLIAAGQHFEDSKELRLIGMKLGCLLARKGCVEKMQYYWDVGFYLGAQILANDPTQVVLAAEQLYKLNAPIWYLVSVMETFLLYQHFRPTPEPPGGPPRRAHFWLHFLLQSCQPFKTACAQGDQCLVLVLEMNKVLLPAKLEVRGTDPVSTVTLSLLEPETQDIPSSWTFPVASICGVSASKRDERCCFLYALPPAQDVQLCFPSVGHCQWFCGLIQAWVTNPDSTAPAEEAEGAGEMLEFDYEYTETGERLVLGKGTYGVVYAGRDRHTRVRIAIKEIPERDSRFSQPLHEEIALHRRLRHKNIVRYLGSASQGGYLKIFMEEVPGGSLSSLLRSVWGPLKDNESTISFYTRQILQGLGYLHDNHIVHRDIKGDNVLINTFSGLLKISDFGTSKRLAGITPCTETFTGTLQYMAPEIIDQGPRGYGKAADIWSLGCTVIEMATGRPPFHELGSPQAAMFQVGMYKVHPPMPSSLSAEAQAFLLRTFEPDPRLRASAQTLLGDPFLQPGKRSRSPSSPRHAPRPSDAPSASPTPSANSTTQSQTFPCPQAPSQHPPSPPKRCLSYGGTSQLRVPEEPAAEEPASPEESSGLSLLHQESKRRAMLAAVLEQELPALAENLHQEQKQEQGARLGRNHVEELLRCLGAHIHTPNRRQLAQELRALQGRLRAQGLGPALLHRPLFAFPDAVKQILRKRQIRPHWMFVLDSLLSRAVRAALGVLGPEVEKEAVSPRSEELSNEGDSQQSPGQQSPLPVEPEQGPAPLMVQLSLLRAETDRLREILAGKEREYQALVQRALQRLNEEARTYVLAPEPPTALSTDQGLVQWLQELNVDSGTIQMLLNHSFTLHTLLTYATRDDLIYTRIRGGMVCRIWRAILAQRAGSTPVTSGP
Sequence of UniProt P16234 (whole entry, looked up): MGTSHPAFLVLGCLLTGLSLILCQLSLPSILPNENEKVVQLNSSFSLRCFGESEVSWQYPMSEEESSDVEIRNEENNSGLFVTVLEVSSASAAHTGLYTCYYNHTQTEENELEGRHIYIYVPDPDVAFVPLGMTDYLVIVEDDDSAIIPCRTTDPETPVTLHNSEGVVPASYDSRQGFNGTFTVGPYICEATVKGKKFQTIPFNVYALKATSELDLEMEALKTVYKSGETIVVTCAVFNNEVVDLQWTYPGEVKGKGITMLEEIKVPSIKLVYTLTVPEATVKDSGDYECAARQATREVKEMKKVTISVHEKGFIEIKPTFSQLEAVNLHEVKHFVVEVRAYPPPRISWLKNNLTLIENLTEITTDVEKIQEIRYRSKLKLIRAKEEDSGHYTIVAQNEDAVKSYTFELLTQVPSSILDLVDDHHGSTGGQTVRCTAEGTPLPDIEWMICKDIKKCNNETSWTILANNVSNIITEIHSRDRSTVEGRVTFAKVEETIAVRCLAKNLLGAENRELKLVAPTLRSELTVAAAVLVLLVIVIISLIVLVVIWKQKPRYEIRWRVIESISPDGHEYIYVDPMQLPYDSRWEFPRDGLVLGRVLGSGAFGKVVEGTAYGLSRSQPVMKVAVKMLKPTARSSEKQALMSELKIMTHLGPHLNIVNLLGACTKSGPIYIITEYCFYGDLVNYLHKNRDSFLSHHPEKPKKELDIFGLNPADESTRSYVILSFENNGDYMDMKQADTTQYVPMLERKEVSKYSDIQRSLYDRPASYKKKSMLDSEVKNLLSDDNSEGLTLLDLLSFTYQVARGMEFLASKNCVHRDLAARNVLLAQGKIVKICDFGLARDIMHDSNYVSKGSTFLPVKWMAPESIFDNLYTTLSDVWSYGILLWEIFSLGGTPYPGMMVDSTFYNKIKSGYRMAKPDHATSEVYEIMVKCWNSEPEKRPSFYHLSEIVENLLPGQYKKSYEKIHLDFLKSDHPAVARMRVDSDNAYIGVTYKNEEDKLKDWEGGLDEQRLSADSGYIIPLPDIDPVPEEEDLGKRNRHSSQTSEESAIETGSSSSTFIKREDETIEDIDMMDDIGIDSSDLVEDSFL
Sequence of UniProt P00519 (whole entry, unmodified, looked up): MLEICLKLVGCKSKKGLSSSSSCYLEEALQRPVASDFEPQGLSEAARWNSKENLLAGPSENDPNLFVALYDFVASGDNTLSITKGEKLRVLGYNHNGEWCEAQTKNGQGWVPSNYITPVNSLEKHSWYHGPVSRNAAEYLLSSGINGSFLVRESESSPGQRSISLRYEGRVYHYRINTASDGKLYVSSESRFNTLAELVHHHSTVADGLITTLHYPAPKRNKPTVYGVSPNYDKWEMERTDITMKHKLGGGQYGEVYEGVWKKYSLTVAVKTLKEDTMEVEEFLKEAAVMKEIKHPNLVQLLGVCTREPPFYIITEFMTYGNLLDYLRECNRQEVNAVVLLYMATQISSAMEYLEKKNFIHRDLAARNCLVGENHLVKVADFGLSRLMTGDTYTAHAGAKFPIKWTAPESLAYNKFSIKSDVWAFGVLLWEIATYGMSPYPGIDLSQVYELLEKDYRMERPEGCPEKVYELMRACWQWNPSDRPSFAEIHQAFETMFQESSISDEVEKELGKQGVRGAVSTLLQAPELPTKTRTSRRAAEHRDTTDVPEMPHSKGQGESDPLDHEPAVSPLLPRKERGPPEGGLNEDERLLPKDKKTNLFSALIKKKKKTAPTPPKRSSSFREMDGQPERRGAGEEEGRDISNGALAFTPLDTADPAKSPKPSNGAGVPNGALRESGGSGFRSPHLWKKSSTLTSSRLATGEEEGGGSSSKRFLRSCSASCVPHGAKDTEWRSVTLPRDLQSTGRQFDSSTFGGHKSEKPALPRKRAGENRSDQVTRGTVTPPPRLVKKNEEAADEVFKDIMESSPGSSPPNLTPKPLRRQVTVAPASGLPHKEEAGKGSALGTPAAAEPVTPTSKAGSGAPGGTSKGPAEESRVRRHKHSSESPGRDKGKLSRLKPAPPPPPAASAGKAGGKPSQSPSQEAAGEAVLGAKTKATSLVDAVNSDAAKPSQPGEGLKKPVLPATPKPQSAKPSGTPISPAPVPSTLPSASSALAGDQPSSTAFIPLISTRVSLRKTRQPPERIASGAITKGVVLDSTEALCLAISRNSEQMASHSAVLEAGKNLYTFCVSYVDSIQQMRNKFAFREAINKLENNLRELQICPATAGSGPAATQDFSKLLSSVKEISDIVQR
Sequence of UniProt P51817 (whole entry, looked up): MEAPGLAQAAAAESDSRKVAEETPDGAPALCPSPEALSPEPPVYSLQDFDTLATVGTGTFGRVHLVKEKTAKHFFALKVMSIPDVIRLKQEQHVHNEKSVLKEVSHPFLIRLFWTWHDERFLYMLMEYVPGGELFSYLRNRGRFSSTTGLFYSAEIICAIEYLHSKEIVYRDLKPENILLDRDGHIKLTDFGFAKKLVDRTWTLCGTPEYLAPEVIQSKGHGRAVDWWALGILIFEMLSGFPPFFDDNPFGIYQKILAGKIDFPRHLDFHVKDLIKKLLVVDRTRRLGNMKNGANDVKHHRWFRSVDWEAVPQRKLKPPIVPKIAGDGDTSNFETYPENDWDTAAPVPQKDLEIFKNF

Series 1 — cell line: mouse MPNST tumor cells; method: high-content nuclear imaging; measured: cell number; tested at: 10 µM; time: 12 h; setting: mean of 2 replicates; relative to: plate mean; direction: higher = more cells; measurement: nuclei count
O=C(O)c1cccnc1Nc1cccc(C(F)(F)F)c1: -0.408 z-score
OCC(O)COc1ccc(Cl)cc1 (centres unmarked): 0.792 z-score
C[C@@H]1CCN(C(=O)CC#N)C[C@@H]1N(C)c1ncnc2[nH]ccc12: 2.11 z-score
CC[C@H](C)C(=O)O[C@H]1C[C@H](O)C=C2C=C[C@H](C)[C@H](CC[C@@H](O)C[C@@H](O)CC(=O)O)[C@H]21: 1.19 z-score and 1.74 z-score
CCCCCCN(CCCCCC)C(=O)Cc1c(-c2ccc(Cl)cc2)[nH]c2ccc(Cl)cc12: 1.3 z-score
COC(=O)Nc1nc2ccc(SC(C)C)cc2[nH]1: -3.12 z-score
Cc1ccc(-c2csc3ncnc(SCCC(=O)O)c23)cc1: 2.66 z-score
COc1cc(N)c(Cl)cc1C(=O)NC1CCN(Cc2ccccc2)CC1: 1.73 z-score
CCn1c2ccccc2c2cc(Nc3ccnc(NCCCN4CCOCC4)n3)ccc21: -5.36 z-score
COc1ccc(S(=O)(=O)c2cc(OC)ccc2S(=O)(=O)c2ccc([C@H](C)NS(C)(=O)=O)cc2)cc1: 0.731 z-score

Series 2 — host: human; sample: microsomes or S9; tested at: 2 µM; time: 0.5 h; measurement: remaining compound
COc1ccc(C(CC(N)=O)c2c(Cc3ccc4c(c3)CCO4)[nH][nH]c2=O)cc1OC (centres unmarked): 33%
CCOC(=O)c1cn(-c2nc(Cl)ncc2Cl)cc1C(=O)OCC: 0.414%
Oc1ccc(Oc2nc3ccccc3nc2Oc2ccc(O)cc2)cc1: 67.5%
Cc1cc(C)c2nc(-c3ccc(Cl)s3)cc(C(=O)O)c2c1: > 100%
Fc1ccc(CNc2nc3ncc(Br)nc3s2)cc1: 54.1%
COCCN1C(=O)c2ccccc2C(C(=O)N(C)c2ccccc2Cl)C1c1cccs1 (centres unmarked): 3.5%
CCc1nc(-n2nc(C)cc2C)c2cc(C)sc2n1: 69.1%
c1ccc(-c2nc(Cc3nc4ccccc4[nH]3)no2)cc1: 35%
CC1(C)CC(=O)c2c(O)cc(OCC(=O)NCC3CCC(C(=O)O)CC3)cc2O1 (centres unmarked): > 100%

Series 3 — method: competition with immobilised ligand; tested at: 1 µM; measurement: remaining binding
Structure (SMILES): O=C(O)[C@H]1[C@H](Cn2nnc3ccccc3c2=O)CC[C@@H]1C(=O)c1ccc(OCCC2CCOCC2)cc1
PDGFRA (Homo sapiens, UniProt P16234); cell-free assay: 100%
CDK4 (Homo sapiens, UniProt P11802); cell-free assay: 96%
MAP3K6 (Homo sapiens, UniProt O95382); cell-free assay: 91%
PHKG2 (Homo sapiens, UniProt P15735); cell-free assay: 100%
KIT (Homo sapiens, UniProt P10721); cell-free assay: 65%
PRKX (Homo sapiens, UniProt P51817); cell-free assay: 93%
Tyrosine-protein kinase ABL1, phosphorylated (ABL1, Homo sapiens, UniProt P00519, E255K); binding: 75%

Series 4 — measurement: patients with adverse event
SMILES: CC(C)n1cnc(-c2ccc(F)cc2)c1-c1ncc(C(=O)Nc2ccc(N3CCN(C)CC3)cc2)[nH]1
Phase 2a trial, measured: hyperuricaemia; human, idiopathic pulmonary fibrosis; 30 mg once daily, grade 4: 0%
measured: liver injury; patients with idiopathic pulmonary fibrosis; 30 mg twice daily, trial, together with: standard of care therapy: 25%
measured: liver injury; patients with idiopathic pulmonary fibrosis; 30 mg twice daily, trial, without standard of care: 0%
Phase 2a trial, measured: hypercholesterolaemia; human, idiopathic pulmonary fibrosis; all compound arms total, grade 3: 0%
Phase 2a trial, measured: hyperuricaemia; human, idiopathic pulmonary fibrosis; 60 mg once daily, grade 4: 0%
Phase 2a trial, measured: hypertriglyceridaemia; human, idiopathic pulmonary fibrosis; 30 mg once daily, grade 4: 0%
Phase 2a trial, measured: hypocalcaemia; human, idiopathic pulmonary fibrosis; 30 mg once daily, grade 2: 0%
Phase 2a trial, measured: blood creatinine increased; human, idiopathic pulmonary fibrosis; 60 mg once daily, grade 2: 0%

Series 5 — read-out: enzyme activity; mode: inhibitor; tested at: 0.5 µM; relative to: control; measurement: remaining activity
Target: NT-3 growth factor receptor (NTRK3, Homo sapiens, UniProt Q16288)
Sequence of UniProt Q16288 (whole entry, looked up): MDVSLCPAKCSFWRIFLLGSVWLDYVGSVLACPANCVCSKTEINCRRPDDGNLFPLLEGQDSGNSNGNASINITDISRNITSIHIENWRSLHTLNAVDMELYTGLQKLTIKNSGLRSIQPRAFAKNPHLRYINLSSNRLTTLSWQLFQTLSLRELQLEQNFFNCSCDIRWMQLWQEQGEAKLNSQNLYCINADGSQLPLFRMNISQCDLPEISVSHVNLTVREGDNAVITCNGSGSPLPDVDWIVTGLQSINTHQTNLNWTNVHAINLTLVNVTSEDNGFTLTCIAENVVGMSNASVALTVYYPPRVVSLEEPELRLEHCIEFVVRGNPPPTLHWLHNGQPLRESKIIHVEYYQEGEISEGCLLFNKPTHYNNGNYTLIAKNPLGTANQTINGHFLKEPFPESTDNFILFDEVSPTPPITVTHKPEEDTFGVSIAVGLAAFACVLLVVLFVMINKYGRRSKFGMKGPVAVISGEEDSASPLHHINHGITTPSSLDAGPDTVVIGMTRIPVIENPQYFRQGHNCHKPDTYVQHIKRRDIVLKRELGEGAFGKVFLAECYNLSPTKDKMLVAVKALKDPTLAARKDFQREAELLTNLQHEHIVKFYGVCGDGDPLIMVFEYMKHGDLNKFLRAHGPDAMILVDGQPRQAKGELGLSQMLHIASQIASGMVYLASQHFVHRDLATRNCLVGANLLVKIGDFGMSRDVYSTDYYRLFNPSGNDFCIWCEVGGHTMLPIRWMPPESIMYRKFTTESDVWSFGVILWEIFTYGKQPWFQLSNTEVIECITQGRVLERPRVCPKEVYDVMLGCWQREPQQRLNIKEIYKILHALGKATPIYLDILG
CCN(CC)CCCCN1c2ccccc2Oc2ccc(Cl)cc21: 103%
O=C1NC(=O)c2c1c1c3ccccc3[nH]c1c1[nH]c3cc(Br)ccc3c21: 28.8%
O=c1cc(N2CCOCC2)oc2c(-c3ccccc3)cccc12: 95.9%
c1ccc(-c2n[nH]c3c2oc2ccccc23)cc1: 42.7%
COc1cccc(-c2cc(=O)c3ccccc3o2)c1N: 99.3%
O=Nc1c(-c2c(O)[nH]c3ccccc23)[nH]c2ccccc12: 2.17%
N#CC(c1ccnc(NCCc2cccnc2)n1)c1nc2ccccc2s1 (centres unmarked): 80.2%
O=c1c(-c2ccc(F)cc2)c(-c2ccncc2)[nH]n1-c1ccc(Cl)cc1: 99.2%
c1cc(-c2cnn3cc(-c4ccc(OCCN5CCCCC5)cc4)cnc23)ccn1: 7.7%
O=C1c2ccccc2-c2nc3nnnn3nc21: 87.2%
O=Nc1c(-c2c(O)[nH]c3cc(Br)ccc23)[nH]c2ccccc12: 4.98%
O=C1Cc2c([nH]c3ccc(Br)cc23)-c2ccccc2N1: 70.7%
C[C@@H](N)[C@H]1CC[C@H](C(=O)Nc2ccncc2)CC1: 93.6%
N#Cc1cnc2cnc(NCc3cccnc3)cc2c1Nc1ccc(F)c(Cl)c1: 93.2%
Oc1cccc(-c2nc(N3CCOCC3)c3oc4ncccc4c3n2)c1: 91.1%
NC(=O)c1cccc(-c2cc(Nc3ccc(OC(F)(F)F)cc3)ncn2)c1: 92.7%
NC(=O)c1ccc(-c2nc(-c3ccc4c(c3)OCCO4)c(-c3ccccn3)[nH]2)cc1: 95%
O=C1Nc2ccccc2/C1=C\c1c(Cl)[nH]c2ccccc12: 92.9%
FC(F)(F)c1ccc(/C=C/c2nc(COc3ccc(CCCCn4ccnn4)cc3)co2)cc1: 98.9%
Nc1nc(Nc2ccc(S(N)(=O)=O)cc2)nn1C(=S)Nc1c(F)cccc1F: 3.59%
CC(C)N(CCC(=O)c1ccc2ccccc2c1)Cc1ccccc1: 103%
CC(C)n1cnc2c(Nc3cccc(Cl)c3)nc(NCCO)nc21: 30.7%
O=C(c1cc2cc(O)ccc2[nH]1)c1cc2cc(O)ccc2[nH]1: 13.4%
CNc1cc2c(Nc3cccc(Br)c3)ncnc2cn1: 72.7%
N#C/C(=C(/N)SC1C=CC=CC1)c1cccc(C(O)c2ccncc2)c1 (centres unmarked): 103%

Excerpt of the above (series 5):
O=C1Cc2c([nH]c3ccc(Br)cc23)-c2ccccc2N1: 70.7%
C[C@@H](N)[C@H]1CC[C@H](C(=O)Nc2ccncc2)CC1: 93.6%
O=Nc1c(-c2c(O)[nH]c3ccccc23)[nH]c2ccccc12: 2.17%
O=C1c2ccccc2-c2nc3nnnn3nc21: 87.2%
O=C1NC(=O)c2c1c1c3ccccc3[nH]c1c1[nH]c3cc(Br)ccc3c21: 28.8%
FC(F)(F)c1ccc(/C=C/c2nc(COc3ccc(CCCCn4ccnn4)cc3)co2)cc1: 98.9%
CCN(CC)CCCCN1c2ccccc2Oc2ccc(Cl)cc21: 103%
Nc1nc(Nc2ccc(S(N)(=O)=O)cc2)nn1C(=S)Nc1c(F)cccc1F: 3.59%
c1cc(-c2cnn3cc(-c4ccc(OCCN5CCCCC5)cc4)cnc23)ccn1: 7.7%
